Results from different studies.
Compare with care: the assays were run in different laboratories. Numbers after ± are the reported error.

CCCCCc1ccc(C(=O)Oc2ccc(C#N)c(F)c2)cc1 — mean serum concentration (human mother-newborn pairs, cord serum): 0.64 ng/mL
C[C@H](CCC(=O)NCC(=O)O)[C@H]1CC[C@H]2[C@@H]3CC[C@@H]4C[C@H](OS(=O)(=O)O)CC[C@]4(C)[C@H]3CC[C@]12C — mean daily plasma concentration (human, plasma; baseline): 795 ± 184 nM
Cn1cc(-c2cn3nccc3c(-c3cnn([C@]4(CC#N)C[C@@H](C#N)C4)c3)n2)cn1 — mean residence time (healthy humans fasted, plasma; 100 mg single dose, geometric mean): 21.2 h
C[C@H](CCC(=O)NCC(=O)O)[C@H]1CC[C@H]2[C@@H]3CC[C@@H]4C[C@H](O)CC[C@]4(C)[C@H]3C[C@H](O)[C@]12C — mean daily plasma concentration (human, plasma; oral, dose not given, control): 291 ± 54 nM
Cc1ccc(Sc2ccccc2N2CCNCC2)c(C)c1 — mean AUC(0-168 h) (healthy male humans fasted, plasma; oral, 10 mg single): 290 ng·h/mL
CCCCOc1ccc([C@H]2CC[C@H](CCC)CC2)c(F)c1F — mean serum concentration (human mother-newborn pairs, female fetuses, cord serum): 7.5 ng/mL
Cc1ccc(O)c(-n2nc3ccccc3n2)c1 — mean daily dermal uptake (exposure assessment; human, age 6-11 years; sunscreen): 912 ng/kg body weight/day
COc1cc(C(=O)O)ccc1NC(=O)[C@@H]1N[C@@H](CC(C)(C)C)[C@](C#N)(c2ccc(Cl)cc2F)[C@H]1c1cccc(Cl)c1F — mean Ctrough (human, plasma; 400 mg, steady state, with: venetoclax 400 mg): 3.89 µg/mL
C[C@H](CCC(=O)O)[C@H]1CC[C@H]2[C@@H]3[C@H](O)C[C@@H]4C[C@H](O)CC[C@]4(C)[C@H]3C[C@H](O)[C@]12C — mean daily plasma concentration (human, plasma; control): 45.3 ± 9.3 nM
CCCOc1ccc(-c2ccc(C#N)cc2)cc1 — mean serum concentration (human mother-newborn pairs, cord serum): 0.77 ng/mL
C[C@H](CCC(=O)NCCS(=O)(=O)O)[C@H]1CC[C@H]2[C@@H]3CC[C@@H]4C[C@H](O)CC[C@]4(C)[C@H]3C[C@H](O)[C@]12C — mean daily plasma concentration (human, plasma; control): 53.3 ± 9.2 nM
O=C(O)[C@H]1O[C@@H](Oc2cc(O)cc(/C=C\c3ccc(O)cc3)c2)[C@H](O)[C@@H](O)[C@@H]1O — mean concentration (human, plasma): 478 nM
N#Cc1ccc2c(c1)[C@H]1CCCN(C(=O)c3ccc4[nH]cnc4c3)[C@H]1C2 — mean ACTH level (human; 10 mg, day 7): 6.3 pmol/L
C[C@H](CCC(=O)O)[C@H]1CC[C@H]2[C@@H]3CC[C@@H]4C[C@H](OS(=O)(=O)O)CC[C@]4(C)[C@H]3CC[C@]12C — mean daily plasma concentration (human, plasma; baseline): 301 ± 21 nM
CCCC1CCC(c2ccc(-c3ccc(F)c(F)c3)cc2)CC1 (centres unmarked) — mean serum concentration (human mother-newborn pairs, female fetuses, cord serum): 0.59 ng/mL
C[C@@H](O)CCOC(=O)C[C@@H](C)O — mean arterial pressure (human; oral drink, dose not given, 240 min post dose, mean): 84 mmHg
CCCCc1ccc(C#Cc2ccc(OCC)cc2)cc1 — mean serum concentration (human mother-newborn pairs, cord serum): 0.43 ng/mL
CCNCCCNC/C=C\CNCCCNCC — mean residence time (LC-MS/MS; human cancer patients, plasma; intravenous infusion 60 min, 200 mg, median, cycle 1): 0.65 h
C=CC(=O)N(C)CCOc1c(N)ncnc1-c1cc(F)cc(NC(=O)c2ccc(C3CC3)cc2F)c1C — mean residence time (human, whole blood; oral, 200 mg, single ascending dose): 3.62 h
CCCCc1ccc(-c2ccc(C#N)cc2)cc1 — mean serum concentration (human mother-newborn pairs, female, maternal serum): 0.18 ng/mL
